{"data": "Measured values pooled from the literature", "note": "A part holds a random share of what one study measured."}
{"data": "Set 1", "target": "Transcription factor Sp1 (SP1, Homo sapiens, UniProt P08047, residues 1-785, full length assumed)", "method": "protein-binding microarray", "form": "double-stranded DNA, one strand shown", "sample": "in vitro", "concentration": "not given", "setting": "k-mer, scored over probes, only values ≥0.25", "reading": "higher = stronger binding", "UniProt P08047, sequence (whole entry, looked up)": "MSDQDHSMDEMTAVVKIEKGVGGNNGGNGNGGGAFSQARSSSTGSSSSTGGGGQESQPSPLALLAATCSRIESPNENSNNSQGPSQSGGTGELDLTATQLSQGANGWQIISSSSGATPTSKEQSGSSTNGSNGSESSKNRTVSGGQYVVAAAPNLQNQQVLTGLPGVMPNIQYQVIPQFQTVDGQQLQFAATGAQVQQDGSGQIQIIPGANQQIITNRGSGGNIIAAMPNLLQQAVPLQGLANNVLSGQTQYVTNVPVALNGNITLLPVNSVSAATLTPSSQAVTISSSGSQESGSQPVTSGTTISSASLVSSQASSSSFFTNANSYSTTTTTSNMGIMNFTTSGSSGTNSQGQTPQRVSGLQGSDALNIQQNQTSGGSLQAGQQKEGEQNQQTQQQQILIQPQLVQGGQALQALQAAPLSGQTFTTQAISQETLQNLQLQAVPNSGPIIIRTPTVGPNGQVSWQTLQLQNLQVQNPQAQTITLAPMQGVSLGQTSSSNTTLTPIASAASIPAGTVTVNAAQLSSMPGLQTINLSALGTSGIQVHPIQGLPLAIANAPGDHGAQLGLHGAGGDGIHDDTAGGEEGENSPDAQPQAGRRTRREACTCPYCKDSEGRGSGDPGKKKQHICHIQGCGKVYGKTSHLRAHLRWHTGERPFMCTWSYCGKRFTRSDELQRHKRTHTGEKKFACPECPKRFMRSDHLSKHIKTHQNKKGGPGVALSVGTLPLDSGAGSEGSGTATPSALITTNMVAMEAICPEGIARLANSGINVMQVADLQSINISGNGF"}
{"Sequence": "TATGCTCA", "E-score": 0.264}
{"Sequence": "ACGCCTCC", "E-score": 0.356}
{"Sequence": "ATCGCCCC", "E-score": 0.276}
{"data": "Set 2", "target": "Fragile X messenger ribonucleoprotein 1, C-terminal low-complexity region (Fmr1, Mus musculus, UniProt P35922)", "method": "RNA Bind-n-Seq", "form": "RNA", "sample": "in vitro", "concentration": "200 nM", "setting": "whole 134-nt RNA, ends assumed", "added": "150 mM KCl", "reference": "input library", "reading": "higher = stronger binding", "constant ends, left off below": "GGGAGUUCUACAGUCCGACGAUC … UGGAAUUCUCGGGUGUCAAGG"}
{"Sequence": "UUGGGUCCAGACUGCGCCACAGCCUCUCGGGAGACGUGGGCCCUCGGAACCUUUUUAGUGCCGGACUCCGGGCCGCAGGCAGUCCCGCGG", "log2 enrichment": -2.29}
{"Sequence": "AGUCCUGUGCUACACAUCGUAUGUACCGAAUCGGGGAGGGGUUUUUUUGGGGUGGGGAAAGUAUUAUGUUACGCCGUUCGGAUCUGCACU", "log2 enrichment": 1.14}
{"Sequence": "CUCAAGUCCUGUGCUACACAUCGUAUGUACCGAAUCGGAAAAAAAGGUGGUGGAAAGUAUUAUGUUACGCCGUUCGGAUCUGCACUUCCA", "log2 enrichment": -0.103}
{"Sequence": "CACAGACAACACGCACCCACACAGACACAGAGGCAAGGGGUUGGGAUGGGGACAGGGUGCACAGCAGGGCGGGGUAGGACCCCAGCCCCU", "log2 enrichment": 1.31}
{"Sequence": "UGGGAGGUGGAUUUUGUUUAUUUUUUUACCUCAUUUCCAGGGGUGGGAAUUUUUUUUUAAUAUGUGUCAUGAAUAAAGUUGUUUUUGAAA", "log2 enrichment": -0.0976}
{"Sequence": "AAGUCCUGUGCUACACAUCGUAUGUACCGAAUCGGGUUUGGGAGGGUUUUUUUGGGAAAGUAUUAUGUUACGCCGUUCGGAUCUGCACUU", "log2 enrichment": 0.716}
{"Sequence": "AGUCCUGUGCUACACAUCGUAUGUACCGAAUCGGGUUUUUGGGAAAAAGGGAAAGGGAAAGUAUUAUGUUACGCCGUUCGGAUCUGCACU", "log2 enrichment": -0.0179}
{"Sequence": "AAGUCCUGUGCUACACAUCGUAUGUACCGAAUCGGGUUUGGGGUUUGGGUUUGGGGAAAGUAUUAUGUUACGCCGUUCGGAUCUGCACUU", "log2 enrichment": 0.877}
{"data": "Set 3", "target": "Replicase polyprotein 1ab, polymerase (rep, Severe acute respiratory syndrome coronavirus 2, UniProt P0DTD1)", "observed": "enzyme activity", "action": "inhibitor", "concentration": "20 µM"}
{"SMILES": "CNC(=O)ON(C(C)=O)C(=O)NC", "inhibition [%]": 0.32}
{"SMILES": "CC(=O)Oc1ccccc1C(=O)O", "inhibition [%]": 4.49}
{"SMILES": "CC(C)(C(=O)NCC(F)(F)C(F)(F)F)C(=O)N[C@@H]1C(=O)Nc2ccccc2-c2ccccc21", "inhibition [%]": 2.52}
{"SMILES": "COc1cccc(-c2cc(=O)c3ccccc3o2)c1N", "inhibition [%]": -7.4}
{"SMILES": "Cn1c(=O)cnn(CCCCN2CCN(c3ncccn3)CC2)c1=O", "inhibition [%]": 1.5}
{"SMILES": "CCC1=C[C@@H]2CN(C1)Cc1c([nH]c3ccccc13)[C@@](C(=O)OC)(c1cc3c(cc1OC)N(C)[C@H]1[C@@](O)(C(=O)OC)[C@H](OC(C)=O)[C@]4(CC)C=CCN5CC[C@]31[C@@H]54)C2", "inhibition [%]": 1.35}
{"SMILES": "CCN[C@H]1CN(CCCOC)S(=O)(=O)c2sc(S(N)(=O)=O)cc21", "inhibition [%]": -3.13}
{"SMILES": "O=C(Nc1ccc(Cl)cc1)Nc1cccc(-c2cccc(N3CCCC3)n2)c1", "inhibition [%]": 2.66}
{"SMILES": "COc1ccc(OC)c2c(=S)c3ccccc3[nH]c12", "inhibition [%]": 11.7}
{"SMILES": "COc1ccc2nc3ccc(Cl)cc3c(SCCCN)c2c1", "inhibition [%]": -6}
{"SMILES": "N=C(N)c1cc2ccc(OC(=O)c3cccs3)cc2s1", "inhibition [%]": 12.2}
{"SMILES": "CCCCN(CCCC)C(=O)CN1C[C@H](c2ccc3c(c2)OCO3)[C@@H](C(=O)O)[C@@H]1c1ccc(OC)cc1", "inhibition [%]": -2.63}
{"SMILES": "Cc1ncc(CO)c(CN)c1O", "inhibition [%]": 0.41}
{"data": "Single results of other studies"}
{"Structure (SMILES)": "CSc1ccc(C(=O)c2nc(O)[nH]c2C)cc1", "target or system": "Replicase polyprotein 1ab, main protease (rep, Severe acute respiratory syndrome coronavirus 2, UniProt P0DTD1)", "assay": "enzyme activity, inhibitor", "setting": "20 µM, hit confirmation", "quantity": "inhibition", "value": "68.4%"}
{"Structure (SMILES)": "COC(=O)N[C@H](C(=O)N[C@@H](Cc1ccccc1)[C@@H](O)CN(Cc1ccc(-c2ccccn2)cc1)NC(=O)[C@@H](NC(=O)OC)C(C)(C)C)C(C)(C)C.O=S(=O)(O)O", "target or system": "HEK-293T-ACE2", "setting": "concentration not given", "scale": "reference: vehicle", "quantity": "cell number", "value": "96.2%"}
